Assay results collected from several papers.
Each numbered part is a random draw from the data of one study; scales do not carry over between parts.

Series 1
Target: Hepatocyte nuclear factor 3-alpha (Foxa1, Mus musculus, UniProt P35582, residues 1-468, full length assumed)
Sequence of UniProt P35582 (whole entry, looked up): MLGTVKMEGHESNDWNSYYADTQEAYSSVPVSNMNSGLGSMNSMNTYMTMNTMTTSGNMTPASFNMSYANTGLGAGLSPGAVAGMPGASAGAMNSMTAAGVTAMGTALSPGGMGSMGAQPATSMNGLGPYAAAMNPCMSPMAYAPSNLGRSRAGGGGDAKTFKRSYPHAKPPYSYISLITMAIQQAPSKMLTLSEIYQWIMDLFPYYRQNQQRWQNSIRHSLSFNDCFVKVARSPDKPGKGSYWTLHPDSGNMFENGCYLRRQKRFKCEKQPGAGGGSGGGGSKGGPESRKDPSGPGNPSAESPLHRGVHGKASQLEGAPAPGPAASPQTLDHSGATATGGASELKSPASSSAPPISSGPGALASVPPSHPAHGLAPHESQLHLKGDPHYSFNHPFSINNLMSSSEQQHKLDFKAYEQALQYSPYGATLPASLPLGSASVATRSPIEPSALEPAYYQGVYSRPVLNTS
Method: EMSA with sequencing
Molecule type: double-stranded DNA, one strand shown
Medium: in vitro
Concentration: 10 and 20 nM
Notes: whole designed probe, mean of two concentrations, ends assumed
Baseline: negative control set to 0
Direction: higher = stronger binding
All sequences stand within: GTGAGCGGTGCCCATTGATGGGGAAC … TTTCACTGGGATCGTGGGGAC
| Strand | normalised bound fraction [ratio] |
| --- | --- |
| AAGAGCCCGGCGGTAGGGCCATATGTTCCCCATAATCTCCAAAGCCGTCACTTCAATTAGAGCCTCCCCTGAGTTCTAATGCCCAATCCTGAGTAATCTAGCCGCTCTGAAAGAAGAACTCGGTTTCCAATTAAAAGTGTACTAACATTTCTCCTTCCTTTAATTCCCGCGGAGCAAAGCCCCGCGCGGGCGG | -0.0795 |
| AATCCAGCTACCTATCTTCAGTTCCTTGGCCTTCAGCTGGCAGTGAAACAGACACATCAGCTTTAAGACTGGCAGCCAAATAGTTAACGATCTGTAAACATACATAGAGAGTTCCTGTTCAAACATTACGCAAGAGACTGGATGAAAGCCCTTCCATAAAGAACCCTTTAGGTGATGATGCTAAAATTATTTT | 0.254 |
| CCCTCATCCTGGGTGTCGGGGTGGGAGGTGTTCTCATCATGAATGGGAGGCGTACCCAGATCCAGCGTGACTCACCATTAACCAAACCAGAGTGTAAACAAATGGCTGTGTGTCACACCATAATCGACATAGCAAGATATGATACATGCCAGGAGAGAAAAAGAAAGTGCTGATGGAAAAATAATCTCATTAG | 0.279 |
| ATCTTCCCCCTCTTCCTTGCCCCACCAGCTCACCTTCCCGGGTTATTTGCAGATAGGAAAATAAATAAAGCCGGCATTCGTTAACCCTCTTCACGCGCATACTGCTGTTTGCTCTGGATCTAACATGGTCCTGATGAATCATGAGGCTCCGGGAGAGCAAAGCACCGTGTCAGGGCCATGATCCGGGGTGGCC | 0.358 |
| AACAAGGCCCAAATTTTAATTATGCAGGAGGTTAATAGTCACACTGTTGACTTTCCGGTAAGATAAACAGTGAAAACTTGGCAAATGCTAATGTAAATAACTCCCCCCTCCTGCCCTCTCATTCCTGAAAATTGTACTCATTCTTGCAGAGTTCATATATGAGAACAGGGTATCCTAACCTAGTTAGAAGCAC | 0.453 |

Series 2
Target: Histone acetyltransferase KAT6A, both winged helices, GST fusion (KAT6A, Homo sapiens, UniProt Q92794, residues 1-181)
Method: protein binding microarray
Molecule type: double-stranded DNA, one strand shown
Medium: in vitro
Concentration: not given
Notes: 8-mer, flanks averaged, mean of 2 arrays, mostly near background
Baseline: not given
Direction: higher = stronger binding
Residues (chain): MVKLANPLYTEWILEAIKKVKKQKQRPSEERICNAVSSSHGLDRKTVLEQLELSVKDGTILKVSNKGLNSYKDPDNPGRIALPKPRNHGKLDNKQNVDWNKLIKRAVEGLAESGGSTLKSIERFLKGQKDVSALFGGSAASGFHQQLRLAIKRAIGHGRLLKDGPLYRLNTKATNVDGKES
| Strand | E-score |
| --- | --- |
| AATGCGGT | 0.193 |
| AGGTGACC | -0.107 |
| TACCAACA | -0.0603 |
| CGAGGATC | 0.0447 |
| AATGCAGG | -0.122 |
| ATACTGAC | -0.0397 |
| ATAGAGCG | 0.157 |
| ACCCGCAT | 0.163 |
| ACCCCGCT | 0.159 |
| TCTCCGCA | 0.138 |
| AGGCATAG | -0.0562 |
| AGAAAAAA | -0.0928 |
| ACGCTATC | 0.0512 |
| CCAGGCGG | 0.111 |
| ACCTGTGG | -0.168 |
| CCGGGCTA | 0.164 |
| CAGGCGCG | 0.234 |
| CACGCTCG | 0.0743 |

Series 3
Target: RING finger protein unkempt homolog, zinc fingers 1-6, GST-SBP tag (UNK, Homo sapiens, UniProt Q9C0B0, residues 30-357)
Sequence of UniProt Q9C0B0 (30-357, looked up): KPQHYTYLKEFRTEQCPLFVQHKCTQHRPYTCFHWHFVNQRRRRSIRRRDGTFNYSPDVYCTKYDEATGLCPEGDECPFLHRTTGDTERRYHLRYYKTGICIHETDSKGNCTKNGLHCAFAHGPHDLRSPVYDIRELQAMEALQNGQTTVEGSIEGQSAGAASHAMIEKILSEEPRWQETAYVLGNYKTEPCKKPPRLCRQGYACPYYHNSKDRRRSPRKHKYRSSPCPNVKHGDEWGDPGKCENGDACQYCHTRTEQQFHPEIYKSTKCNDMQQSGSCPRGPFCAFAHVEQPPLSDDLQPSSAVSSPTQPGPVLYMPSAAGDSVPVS
Method: RNA Bind-n-Seq
Molecule type: RNA
Medium: in vitro
Concentration: not given
Notes: RNA with constant flanks, ends assumed
Baseline: input RNA pool
Direction: higher = stronger binding
All sequences stand within: GGGAGUUCUACAGUCCGACGAUC … CAACAGAGGAUUGAGCAUCA
| Strand | bound/input enrichment [ratio] |
| --- | --- |
| CAAAGCAUCCUAACAGGGUCGUUCCCAUACACAUUUGACCUGGUCAGCCUUUUCCAGGUGAACCGCCCCAGUUCUGACAUAAAGAAAGUUUUAUUUGUAUUUUACUACUGUUUGGUCAAU | 0.342 |
| UCUAGGCAUUCAAGAUCUCGUAGCAGGCACAGAUUGUCUAGAUCCAGAAGUCGUCAUUCCCGUAUUUCUCCUAGCACACUAACUCUGAAGAGUAGCCUGGCAGCUGAAUUGAACAAGAAU | 0.198 |
| CAGAAAAUCGAUGAGCUCUUCUCUGGGAAGCUGUACCUCAUUGGAAUUGCAGCCAUUGUGGCCGCUGUCAUUAUGAUCUUUGAGAUGAUUCUGAGCAUGGUGCUGUGCUGUGGCAUCCGG | 0.143 |
| CCCAAAACUAAUCUUCUGUACAAAGUUGUGUGCAUAUUGAGAUGAUUAGUUAAGGCAGUGCCGUUUUUUAAAUUUUUUCUGUAUAAAUUUCUUUCCUUCUUCCCCACCUCAGGCACCUAC | 1.96 |
| AAGCGCAAGAAGAAUGACAUUUAUGGAGAAGACUAACAGCAGUACAUAUUAUGUAAUAAUCCGGACAAACUUAAAAUUUGGCAAAUAAUGUAUAUUGUAUGAAAUCAAUACUGUAAGCCC | 0.271 |
| UUGGCCAGUCAGUAUUCUGCUAAUGAAAUGUAUGCAGAAGCACUGAACACAUACCAAGUUACCGUGAAAAACAAGAUGUUUAGCAAUGCAGGAAGACUGAAAGUGAAUAUGGGAAAUAUU | 0.149 |
| AAGGAACUGGAAGUACCUCAUUUUCACCACGAGCUUGUAUAUGAAGCCAUUGUAAUGGUUUCCGAGUCAACUGGAGAAAGUGCAUUCAAGAUGAUCUUAGAUUUAUUAAAAUCCUUGUGG | 0.577 |
| UGGCAAAUUUGUAUCAGUAAUUUGAAAAUGAGAUAUUAGGAAAAACCAAUUCUUCUUAAAUUCCGUUCAUCUUUCUUUAAAAGAACAUUAAAUGUAACCAUUUUGUCAGAUCCAUGUAUU | 0.372 |

Series 4
Target: Sal-like protein 4, full length isoform B (SALL4, Homo sapiens, UniProt Q9UJQ4-2, residues 1-616)
Method: universal PBM
Molecule type: double-stranded DNA, one strand shown
Medium: in vitro
Concentration: not given
Notes: 8-mer, flanks averaged, mean of replicates
Direction: higher = stronger binding
| Strand | E-score |
| --- | --- |
| ACAATAAC | 0.386 |
| TCCGCAAA | 0.0644 |
| AGGTGTTA | 0.0962 |
| AGCAACTA | 0.214 |
| TAGACTCA | -0.0451 |
| CATCAATC | 0.173 |
| ATACAAAA | 0.36 |
| AGGCAAAT | 0.0697 |
| TCAGGGAA | -0.00337 |
| GCGCAAAA | 0.222 |
| GCACCCTA | -0.0728 |
| CGCAGCAG | -0.143 |
| ATACCACA | 0.126 |
| CCTAGGGC | -0.262 |
| AACCCGCG | -0.267 |
| CTCGCGGA | -0.228 |
| TCAGGCCA | -0.171 |
| AAACAATC | 0.231 |
| GCAATGAA | 0.0693 |
| TTTCAAAA | 0.349 |
| ACCGATGC | -0.124 |
| ACCTCATG | -0.104 |
| GTACAGCA | -0.0641 |
| CCTCCCAC | -0.119 |
| TGATAGAA | 0.195 |

Repeated from above (series 2):
| Strand | E-score |
| --- | --- |
| TCTCCGCA | 0.138 |
| AGGCATAG | -0.0562 |
| AGAAAAAA | -0.0928 |
| ACGCTATC | 0.0512 |
| CCAGGCGG | 0.111 |
| ACCTGTGG | -0.168 |
| CCGGGCTA | 0.164 |
| CAGGCGCG | 0.234 |
